Published values of several laboratories.
Protocols differ between the studies behind these lines. “And” joins repeats or separate records; there may be more than shown. ± marks the error that the study gave.

`colistin` has an MIC of no more than 0.12 µg/mL (Klebsiella pneumoniae; ATCC BAA-1705, KPC-2).
`pertussis toxin` gave a distance travelled of 32 m and 16 m (open field test; humanized mice, subarachnoid haemorrhage; dose not given).
For `insulin human`, the fold change was 1.07 (item: SOD2 mRNA; uninfected mouse, brain; i.p., dose not given; relative to: PBS).
The MIC of `colistin sulfate` is reported as 17.8 µM (Pseudomonas aeruginosa; broth microdilution; CMCC 10104).
`Polymyxin B` has an MIC of 16 µg/mL (Klebsiella pneumoniae; broth microdilution; K4 parental, KPC-2).
With `tunicamycin` the MIC was greater than 64 µg/mL (Pseudomonas aeruginosa; broth microdilution, EUCAST; DSM 1128; 18 to 24 h, 37 °C).
`DAPT` gave an MIC of 12.5 µg/mL (Streptococcus pneumoniae; ATCC 700677, multidrug-resistant, CAMHB, lysed horse blood).
The MIC of `Polymyxin B` is reported as 4 µg/mL (Pseudomonas aeruginosa; broth microdilution; P4 clinical isolate; 20 h).
With `aspterric acid` the inhibition was 95.2% (hypocotyl length; Arabidopsis thaliana Col-0 seeds; 12.5 µg/mL, 7 days, dark).
`colistin` gave an MIC of 32 µg/mL (Klebsiella pneumoniae; broth microdilution; KPC-180 producing).
With `nonaarginine` the koff was 11.8 ± 2 s⁻¹ (PorA peptide pore; peptide binding, planar bilayer single-channel recording; 0.5 µM, pH 7.4, +5 mV, trans side, 150 mM KCl).
`thiostrepton` gave an MIC of 0.002 µg/mL (Streptococcus pyogenes).
For `hexaarginine`, the koff was 4550 ± 450 s⁻¹ (PorA peptide pore; peptide binding, planar bilayer single-channel recording; 0.5 µM, pH 7.4, -25 mV, cis side, 150 mM KCl).
For `Polymyxin B`, the MIC was 2 µM (Klebsiella pneumoniae; NCCP 16054; 16 h, 37 °C, Mueller-Hinton broth).
`Teicoplanin A2-2` gave an MIC of 0.5 µg/mL (Enterococcus faecium; VanB vancomycin-resistant).

Excerpt of the above:
The MIC of `Polymyxin B` is reported as 4 µg/mL (Pseudomonas aeruginosa; broth microdilution; P4 clinical isolate; 20 h).
